Published values gathered from unrelated publications.
Protocols differ between the studies behind these lines. ± gives the spread as reported.

Compound	assay	system	setting	plasma concentration
CCCCCN1C[C@H](O)[C@@H](O)[C@H](O)[C@@H]1CO	LC-MS/MS	mouse Hexb-/- male, plasma	30 mg/kg/day, geometric mean	205 ng/mL
C[C@@H]1CCO[C@H]2Cn3cc(C(=O)NCc4ccc(F)cc4F)c(=O)c(O)c3C(=O)N12	population PK, post-hoc	children aged 0.17 to 2 years, 6 to <10 kg, plasma	oral, 10 mg dispersible tablet, 24 h, steady state, geometric mean	853 ng/mL
COc1cccc(-c2n[nH]c(SCc3ccccn3)n2)c1OC		Sprague-Dawley rats, both sexes	oral dietary, 100 mg/kg/day, day 7, 12 h	6240 ng/mL
CCOCc1nc(O)c(-c2nnc(Cc3ccc(Cl)cn3)o2)c(O)c1-c1c(OC)cccc1OC		rat, anaesthetised, cannulated, plasma	intravenous infusion, 1 µg/kg/min, 30 min after infusion stop, washout	34 nM
C[C@@H](O)[C@H]1C(=O)N2C(C(=O)O)=C(S[C@@H]3CN[C@H](C(=O)N(C)C)C3)[C@H](C)[C@H]12		BALB/c mouse, male, plasma	intraperitoneal, 100 mg/kg, 8 h	3860 ng/mL
Cc1c(C(=O)O)ccc2c3n(nc12)[C@@H]1[C@H](C3)N(CC2CC2)[C@@]2(C(=O)Nc3cc(Cl)ccc32)[C@H]1c1cccc(Cl)c1F		female BALB/c nude mice, SJSA-1 xenograft, plasma	oral, 2 mg/kg once daily, 31 h	427 nM
COc1ccc2c(c1)CN(C(=O)CCN1CCC(Cc3ccccc3)CC1)CC[S@@+]2[O-]		anesthetized male beagle dogs, plasma	intravenous, 2 mg/kg total over 30 min, end of infusion	712 ng/mL
Cc1cc([C@H]2C[C@H]3[C@@H](CF)SC(N)=N[C@@]3(c3ccc(F)cc3F)CO2)on1		male 129/SVE mouse, plasma	subcutaneous, 100 mg/kg, 1 h	14300 nM
CNCCOC12CC3(C)CC(C)(CC(Cn4ncc(-c5ccc(N6CCc7cccc(C(=O)Nc8nc9ccccc9s8)c7C6)nc5C(=O)O)c4C)(C3)C1)C2		anaesthetised male beagle dogs	intravenous bolus, 0.03 mg/kg, 10 min	36 ± 0.5 ng/mL

Repeated from above:
Compound	assay	system	setting	plasma concentration
Cc1c(C(=O)O)ccc2c3n(nc12)[C@@H]1[C@H](C3)N(CC2CC2)[C@@]2(C(=O)Nc3cc(Cl)ccc32)[C@H]1c1cccc(Cl)c1F		female BALB/c nude mice, SJSA-1 xenograft, plasma	oral, 2 mg/kg once daily, 31 h	427 nM
